Results gathered from unrelated publications.
Each numbered part is a random draw from the data of one study; scales do not carry over between parts.

Block 1 — technique: RNA Bind-n-Seq; form: RNA; sample: in vitro; concentration: 365 nM; reference: no-protein control; reading: higher = stronger binding
Target: RNA binding protein fox-1 homolog 2, RRM domain, GST-SBP tag (RBFOX2, Homo sapiens, UniProt O43251-10, residues 100-194)
Notes: natural RNA segment, single round, ends assumed
Construct (chain): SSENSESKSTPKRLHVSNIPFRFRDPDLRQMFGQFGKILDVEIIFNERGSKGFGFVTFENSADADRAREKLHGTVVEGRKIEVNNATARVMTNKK
Sequence | RBNS enrichment (R)
GGGAGUUCUACAGUCCGACGAUCACUGCCCCUUCAUUCGGGUCUCUAACAGCUCUCCAAGCUGGGUCAGCCACCACUGUGCUCGCUCCAACUGCGGGUAGCACAGGAGAGGAGGGACGGAUAAGGGCAGAUGUUGGAAUUCUCGGGUGCCAA | 0.268
GGGAGUUCUACAGUCCGACGAUCUUCUGUUUGCCAUUGUUACUUGUACUAUACAUCUGUAUAUAGUGUACGGCAAAAGAGUAUUAAUCCACUAUCUCUAGUGCUUGACUUUAAAUCAGUACAGUACCUGUACCUGGAAUUCUCGGGUGCCAA | 0.258
GGGAGUUCUACAGUCCGACGAUCUUUUUUUGGCCAAAUCUCGUGGUGUUUCGCAGAAAAAAAUCCAGAAAAUUUCAAAUGCAGUUGAGUAUUCUUUUUUAAAUGCAGAUUUUCAAAACAUAUUUUUUUUCAGGUGGAAUUCUCGGGUGCCAA | 1.11
GGGAGUUCUACAGUCCGACGAUCUCCCUUUUUUCUUUGGAACUUGGCCACAGUUUCUCUGGGCUGUGCCUGCAUGACCAGCUGGCUUCAGUGAUUUCUCCGUUUCCCUCUUUAGUUUCUAGGAAGCCACUGUGUGGAAUUCUCGGGUGCCAA | 31.6

Block 2 — technique: protein-binding microarray; form: double-stranded DNA, one strand shown; sample: in vitro; concentration: not given; reading: higher = stronger binding
Target: Protein max, full length (MAX, Homo sapiens, UniProt P61244-2, residues 1-151)
Notes: k-mer, scored over probes, only values ≥0.25
Sequence | E-score
ATGAGCAC | 0.29
TCCATGCA | 0.267
AGAAGCAT | 0.288
ATGCGGTC | 0.259

Block 3 — technique: universal PBM; form: double-stranded DNA, one strand shown; sample: in vitro; concentration: not given; reading: higher = stronger binding
Target: Sal-like protein 4, full length isoform B (SALL4, Homo sapiens, UniProt Q9UJQ4-2, residues 1-616)
Notes: 8-mer, flanks averaged, mean of replicates
Sequence | E-score
AAGGGGAC | -0.19
CTTAGAAA | 0.097
CGGTATTC | -0.0763
CGTCACTC | -0.137

Further values, each from its own experiment
Substance | target | assay | test system | setting | scale | endpoint | value
PhoQ, residues 284 288 289 292 302 303 SLSVQF | PhoP, residues 12 14 15 18 19 NNFVT (Escherichia coli, UniProt P23836) | Sort-seq, item: YFP reporter | E. coli | PhoQ-PhoP variant library, together with: 10 µM Mg2+ | reference: high Mg2+ state, higher = stronger signaling | fold induction | 16.7

Repeated from above (block 1):
Sequence | RBNS enrichment (R)
GGGAGUUCUACAGUCCGACGAUCUUCUGUUUGCCAUUGUUACUUGUACUAUACAUCUGUAUAUAGUGUACGGCAAAAGAGUAUUAAUCCACUAUCUCUAGUGCUUGACUUUAAAUCAGUACAGUACCUGUACCUGGAAUUCUCGGGUGCCAA | 0.258
GGGAGUUCUACAGUCCGACGAUCUUUUUUUGGCCAAAUCUCGUGGUGUUUCGCAGAAAAAAAUCCAGAAAAUUUCAAAUGCAGUUGAGUAUUCUUUUUUAAAUGCAGAUUUUCAAAACAUAUUUUUUUUCAGGUGGAAUUCUCGGGUGCCAA | 1.11
